Experimental data gathered from unrelated publications.
Each numbered part is a random draw from the data of one study; scales do not carry over between parts.
Sequence of UniProt Q13164 (whole entry, looked up): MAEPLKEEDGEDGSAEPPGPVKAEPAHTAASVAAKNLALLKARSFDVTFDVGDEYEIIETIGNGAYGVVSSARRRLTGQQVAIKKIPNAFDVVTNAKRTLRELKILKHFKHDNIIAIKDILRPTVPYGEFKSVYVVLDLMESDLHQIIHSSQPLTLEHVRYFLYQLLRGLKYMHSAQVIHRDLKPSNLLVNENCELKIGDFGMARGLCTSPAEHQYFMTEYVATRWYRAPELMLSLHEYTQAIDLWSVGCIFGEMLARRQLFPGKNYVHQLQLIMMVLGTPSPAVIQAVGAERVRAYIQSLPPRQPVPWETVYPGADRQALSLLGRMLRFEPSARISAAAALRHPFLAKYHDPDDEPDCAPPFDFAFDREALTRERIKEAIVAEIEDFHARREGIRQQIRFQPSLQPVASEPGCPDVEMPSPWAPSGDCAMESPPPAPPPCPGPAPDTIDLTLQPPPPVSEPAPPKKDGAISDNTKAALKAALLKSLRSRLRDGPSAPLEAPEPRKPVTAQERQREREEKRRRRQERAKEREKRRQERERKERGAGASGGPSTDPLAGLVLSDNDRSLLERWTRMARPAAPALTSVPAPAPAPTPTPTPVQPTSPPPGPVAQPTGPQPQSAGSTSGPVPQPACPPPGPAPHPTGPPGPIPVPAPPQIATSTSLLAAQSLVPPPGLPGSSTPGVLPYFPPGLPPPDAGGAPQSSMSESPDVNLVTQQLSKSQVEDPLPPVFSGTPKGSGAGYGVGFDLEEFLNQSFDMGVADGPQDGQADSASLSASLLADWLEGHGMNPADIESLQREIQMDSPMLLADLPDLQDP
Sequence of UniProt O60331 (whole entry, looked up): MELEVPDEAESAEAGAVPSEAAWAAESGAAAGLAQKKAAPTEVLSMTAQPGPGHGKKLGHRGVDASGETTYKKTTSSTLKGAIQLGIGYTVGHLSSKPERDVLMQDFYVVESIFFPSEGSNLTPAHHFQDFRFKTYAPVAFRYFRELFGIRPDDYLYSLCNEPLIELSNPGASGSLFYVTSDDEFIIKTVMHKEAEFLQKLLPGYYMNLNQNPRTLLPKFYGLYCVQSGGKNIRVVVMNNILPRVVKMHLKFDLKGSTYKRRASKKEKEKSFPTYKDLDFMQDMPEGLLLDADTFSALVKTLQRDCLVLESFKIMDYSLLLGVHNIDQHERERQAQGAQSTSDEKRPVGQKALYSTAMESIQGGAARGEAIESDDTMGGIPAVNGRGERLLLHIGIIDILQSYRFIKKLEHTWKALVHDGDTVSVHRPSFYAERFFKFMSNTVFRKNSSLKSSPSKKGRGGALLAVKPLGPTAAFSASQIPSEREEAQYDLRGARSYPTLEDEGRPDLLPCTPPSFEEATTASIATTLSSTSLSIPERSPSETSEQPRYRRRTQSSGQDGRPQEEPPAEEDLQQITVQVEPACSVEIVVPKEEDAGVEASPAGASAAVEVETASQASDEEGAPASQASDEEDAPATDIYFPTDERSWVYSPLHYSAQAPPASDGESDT
Sequence of UniProt P16591 (whole entry, looked up): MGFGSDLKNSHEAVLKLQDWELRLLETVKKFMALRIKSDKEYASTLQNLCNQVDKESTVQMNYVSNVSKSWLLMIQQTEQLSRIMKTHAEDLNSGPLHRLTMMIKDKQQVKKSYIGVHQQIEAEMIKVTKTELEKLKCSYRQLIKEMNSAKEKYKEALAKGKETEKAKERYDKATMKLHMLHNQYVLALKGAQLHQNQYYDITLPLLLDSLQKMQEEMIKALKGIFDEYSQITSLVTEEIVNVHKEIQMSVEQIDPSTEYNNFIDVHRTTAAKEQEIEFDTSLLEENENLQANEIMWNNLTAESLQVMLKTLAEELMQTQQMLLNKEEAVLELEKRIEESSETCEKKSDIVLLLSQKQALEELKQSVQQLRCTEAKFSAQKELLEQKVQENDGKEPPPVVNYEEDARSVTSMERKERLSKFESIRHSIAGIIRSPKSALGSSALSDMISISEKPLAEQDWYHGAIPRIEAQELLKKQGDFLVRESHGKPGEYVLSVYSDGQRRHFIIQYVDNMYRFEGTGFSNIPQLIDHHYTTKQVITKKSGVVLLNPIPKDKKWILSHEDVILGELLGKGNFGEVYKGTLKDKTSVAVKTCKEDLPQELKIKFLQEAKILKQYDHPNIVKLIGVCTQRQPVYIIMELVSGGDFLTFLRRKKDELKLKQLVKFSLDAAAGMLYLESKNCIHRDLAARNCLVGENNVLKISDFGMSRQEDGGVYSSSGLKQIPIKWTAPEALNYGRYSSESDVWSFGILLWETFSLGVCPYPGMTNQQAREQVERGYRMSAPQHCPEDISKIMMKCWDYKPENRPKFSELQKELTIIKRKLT

Series 1 — method: competition with immobilised ligand; concentration: 1 µM
Structure (SMILES): CO[C@@H](C)c1c(Nc2ccc([C@@H](N(C)C(=O)C3CCS(=O)(=O)CC3)C(F)(F)F)cc2)cnc2cc(Cl)nn12
target | test | remaining binding [%]
Death-associated protein kinase 3 (DAPK3, Homo sapiens, UniProt O43293) | binding | 47
Ephrin type-B receptor 3 (EPHB3, Homo sapiens, UniProt P54753) | cell-free assay | 100
Rho-associated protein kinase 1 (ROCK1, Homo sapiens, UniProt Q13464) | cell-free assay | 100
Homeodomain-interacting protein kinase 2 (HIPK2, Homo sapiens, UniProt Q9H2X6) | cell-free assay | 100
Phosphatidylinositol 4-phosphate 5-kinase type-1 gamma (PIP5K1C, Homo sapiens, UniProt O60331) | cell-free assay | 100
Serine/threonine-protein kinase MAK (MAK, Homo sapiens, UniProt P20794) | cell-free assay | 100
Serine/threonine-protein kinase LATS1 (LATS1, Homo sapiens, UniProt O95835) | cell-free assay | 98
Receptor-interacting serine/threonine-protein kinase 4 (RIPK4, Homo sapiens, UniProt P57078) | cell-free assay | 100
Mitogen-activated protein kinase 7 (MAPK7, Homo sapiens, UniProt Q13164) | cell-free assay | 100
Myosin-IIIb (MYO3B, Homo sapiens, UniProt Q8WXR4) | cell-free assay | 100
Interleukin-1 receptor-associated kinase 3 (IRAK3, Homo sapiens, UniProt Q9Y616) | cell-free assay | 86
Inhibitor of nuclear factor kappa-B kinase subunit beta (IKBKB, Homo sapiens, UniProt O14920) | cell-free assay | 100
Serine/threonine-protein kinase Nek2 (NEK2, Homo sapiens, UniProt P51955) | cell-free assay | 94
Casein kinase I isoform alpha-like (CSNK1A1L, Homo sapiens, UniProt Q8N752) | cell-free assay | 84

Series 2 — observed: enzyme activity; concentration: 5 µM; relative to: untreated control
Structure (SMILES): O=C(Nc1cnn(-c2csc(C(=O)NC3COC3)c2)c1)Nc1c(F)cccc1Cl
target | remaining activity [%]
Mitogen-activated protein kinase kinase kinase 9 (MAP3K9, Homo sapiens, UniProt P80192) | 88
Tyrosine-protein kinase HCK (HCK, Homo sapiens, UniProt P08631) | 91
Tyrosine-protein kinase Fgr (FGR, Homo sapiens, UniProt P09769) | 95.5
Tyrosine-protein kinase Fer (FER, Homo sapiens, UniProt P16591) | 89.2
Serine/threonine-protein kinase N1 (PKN1, Homo sapiens, UniProt Q16512) | 94.2

Series 3 — observed: enzyme activity; mode: inhibitor; concentration: 77 µM; relative to: untreated
Target: DNA polymerase theta, ATPase domain (POLQ, Homo sapiens, UniProt O75417)
Sequence of UniProt O75417 (whole entry, unmodified, looked up): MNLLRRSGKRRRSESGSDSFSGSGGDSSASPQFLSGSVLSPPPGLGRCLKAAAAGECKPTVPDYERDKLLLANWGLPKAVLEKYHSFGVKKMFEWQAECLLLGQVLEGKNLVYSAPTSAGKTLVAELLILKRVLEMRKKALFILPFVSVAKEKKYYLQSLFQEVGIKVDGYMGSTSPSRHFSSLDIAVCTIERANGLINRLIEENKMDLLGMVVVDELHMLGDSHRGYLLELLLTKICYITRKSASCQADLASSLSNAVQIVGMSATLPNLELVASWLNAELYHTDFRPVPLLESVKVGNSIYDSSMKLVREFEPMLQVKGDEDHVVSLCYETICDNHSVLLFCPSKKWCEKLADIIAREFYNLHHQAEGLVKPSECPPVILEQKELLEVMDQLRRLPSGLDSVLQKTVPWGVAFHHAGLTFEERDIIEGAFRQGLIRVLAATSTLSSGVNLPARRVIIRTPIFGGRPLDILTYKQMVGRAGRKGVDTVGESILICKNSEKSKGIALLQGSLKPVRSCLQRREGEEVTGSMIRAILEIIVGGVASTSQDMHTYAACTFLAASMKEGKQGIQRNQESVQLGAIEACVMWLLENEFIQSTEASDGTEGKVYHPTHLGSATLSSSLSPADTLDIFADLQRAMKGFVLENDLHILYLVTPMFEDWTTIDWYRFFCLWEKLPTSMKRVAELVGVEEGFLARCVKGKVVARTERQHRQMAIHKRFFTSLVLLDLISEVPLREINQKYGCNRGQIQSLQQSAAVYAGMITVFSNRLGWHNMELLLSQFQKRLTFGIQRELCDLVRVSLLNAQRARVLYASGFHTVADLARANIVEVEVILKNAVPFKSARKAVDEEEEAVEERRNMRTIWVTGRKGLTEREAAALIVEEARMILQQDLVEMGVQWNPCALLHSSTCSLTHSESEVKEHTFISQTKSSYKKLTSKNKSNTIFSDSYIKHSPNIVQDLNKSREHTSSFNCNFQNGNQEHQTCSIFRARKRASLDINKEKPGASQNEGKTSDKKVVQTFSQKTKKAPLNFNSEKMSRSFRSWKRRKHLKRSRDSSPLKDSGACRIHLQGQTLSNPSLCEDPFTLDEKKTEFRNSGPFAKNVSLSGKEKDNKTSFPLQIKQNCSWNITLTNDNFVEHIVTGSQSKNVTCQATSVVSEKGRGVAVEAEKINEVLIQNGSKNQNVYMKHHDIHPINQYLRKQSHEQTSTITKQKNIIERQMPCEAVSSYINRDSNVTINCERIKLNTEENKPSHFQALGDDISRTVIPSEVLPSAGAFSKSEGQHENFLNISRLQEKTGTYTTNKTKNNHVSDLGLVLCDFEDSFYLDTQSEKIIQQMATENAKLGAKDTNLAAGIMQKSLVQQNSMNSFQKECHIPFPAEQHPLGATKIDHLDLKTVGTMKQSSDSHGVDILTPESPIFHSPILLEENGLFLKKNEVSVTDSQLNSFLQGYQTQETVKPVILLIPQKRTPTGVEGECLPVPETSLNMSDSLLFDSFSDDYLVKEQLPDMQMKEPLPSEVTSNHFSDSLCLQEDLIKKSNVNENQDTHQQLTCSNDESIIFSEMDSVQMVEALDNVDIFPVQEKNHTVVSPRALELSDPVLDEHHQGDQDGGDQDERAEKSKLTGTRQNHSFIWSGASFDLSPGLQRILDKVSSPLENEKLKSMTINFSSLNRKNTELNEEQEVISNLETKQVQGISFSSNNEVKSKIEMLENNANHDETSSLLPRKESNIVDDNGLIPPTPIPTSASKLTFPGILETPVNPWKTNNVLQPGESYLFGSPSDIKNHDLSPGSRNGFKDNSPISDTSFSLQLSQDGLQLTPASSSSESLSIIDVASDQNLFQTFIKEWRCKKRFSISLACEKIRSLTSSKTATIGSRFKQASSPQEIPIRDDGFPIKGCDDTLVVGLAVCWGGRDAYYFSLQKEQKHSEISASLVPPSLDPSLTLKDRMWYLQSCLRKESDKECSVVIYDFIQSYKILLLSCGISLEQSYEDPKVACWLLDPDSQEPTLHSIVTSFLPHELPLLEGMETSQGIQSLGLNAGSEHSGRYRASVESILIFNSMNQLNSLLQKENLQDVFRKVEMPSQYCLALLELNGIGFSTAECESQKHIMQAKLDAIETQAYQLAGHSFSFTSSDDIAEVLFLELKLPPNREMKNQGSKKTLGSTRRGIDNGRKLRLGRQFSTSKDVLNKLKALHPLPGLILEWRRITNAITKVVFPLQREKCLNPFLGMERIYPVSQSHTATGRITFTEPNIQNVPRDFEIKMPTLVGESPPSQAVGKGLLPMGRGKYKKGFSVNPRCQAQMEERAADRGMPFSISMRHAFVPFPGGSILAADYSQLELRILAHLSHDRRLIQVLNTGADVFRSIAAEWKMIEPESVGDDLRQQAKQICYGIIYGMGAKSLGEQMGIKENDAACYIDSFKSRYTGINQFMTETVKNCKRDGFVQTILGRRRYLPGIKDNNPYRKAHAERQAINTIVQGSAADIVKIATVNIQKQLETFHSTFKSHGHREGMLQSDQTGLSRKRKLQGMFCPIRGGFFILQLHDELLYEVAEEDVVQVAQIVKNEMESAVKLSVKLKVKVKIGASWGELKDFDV
SMILES | remaining activity
C[C@H]1O[C@H](O[C@H]2[C@H](O)[C@@H](O)[C@@H](O[C@H]3[C@H](O)[C@@H](O)C(O)O[C@@H]3CO)O[C@@H]2CO)[C@H](O)[C@@H](O)[C@@H]1N[C@H]1C=C(CO)[C@@H](O)[C@H](O)[C@H]1O (some centres unmarked) | 97.1%
O=C(O)/C(=C/c1c(C(=O)O)[nH]c2cc(Cl)cc(Cl)c12)c1ccccc1 | 61.2%
C[C@@H](NCCc1ccc(O)cc1)[C@@H](O)c1ccc(O)cc1 (racemic) | 102%
CC(Oc1ccccc1)C(=O)N[C@@H]1C(=O)N2[C@@H]1SC(C)(C)[C@@H]2C(=O)O (some centres unmarked) | 96.9%

Series 4 — host: human; sample: microsomes or S9; concentration: 2 µM; time: 0.5 h
SMILES | remaining compound [%]
Clc1cc(Cl)cc(-c2ccc(CNCc3ccncc3)o2)c1 | 54.1
CCCN(CC(=O)N(C)C)C(=O)CS(=O)(=O)N1CCC(C)CC1 | 83.2
Cc1ccc(C(=O)/N=c2\c(C)cccn2C(=O)c2ccc(C)o2)o1 | 1.02
CCOc1cccc(C2c3cccn3-c3sc4c(c3CN2C(=O)NCc2ccc(C)cc2)CCCC4)c1 (centres unmarked) | 14.1
CCOc1ccc(OCC)c(NC(=O)c2cc(S(=O)(=O)N3CCOCC3)cn2C)c1 | 62.6
Brc1ccc(OCCn2cc(/C=N/n3cnnc3)c3ccccc32)cc1 | 64.5
COCC(C)N(Cc1cc(OC)cc(OC)c1)C(=O)CCCC(C)=O (centres unmarked) | 21.4
Cc1cc(C(=O)N2CCOCC2)c2c(=O)n(Cc3ccccc3C)c(=O)n(-c3ccccc3)c2n1 | 14.6
CCOC(=O)CCCOc1nc(C(C)C)c2c(c1C#N)CCCC2 | > 100
